Published values collected from several papers.
Values joined by “and” are separate records of one study, mostly repeats; a detail may differ. Numbers after ± are the reported error.
TOP2A: DNA topoisomerase 2-alpha (TOP2A, Homo sapiens, UniProt P11388)
Sequence of UniProt P11388 (whole entry, looked up): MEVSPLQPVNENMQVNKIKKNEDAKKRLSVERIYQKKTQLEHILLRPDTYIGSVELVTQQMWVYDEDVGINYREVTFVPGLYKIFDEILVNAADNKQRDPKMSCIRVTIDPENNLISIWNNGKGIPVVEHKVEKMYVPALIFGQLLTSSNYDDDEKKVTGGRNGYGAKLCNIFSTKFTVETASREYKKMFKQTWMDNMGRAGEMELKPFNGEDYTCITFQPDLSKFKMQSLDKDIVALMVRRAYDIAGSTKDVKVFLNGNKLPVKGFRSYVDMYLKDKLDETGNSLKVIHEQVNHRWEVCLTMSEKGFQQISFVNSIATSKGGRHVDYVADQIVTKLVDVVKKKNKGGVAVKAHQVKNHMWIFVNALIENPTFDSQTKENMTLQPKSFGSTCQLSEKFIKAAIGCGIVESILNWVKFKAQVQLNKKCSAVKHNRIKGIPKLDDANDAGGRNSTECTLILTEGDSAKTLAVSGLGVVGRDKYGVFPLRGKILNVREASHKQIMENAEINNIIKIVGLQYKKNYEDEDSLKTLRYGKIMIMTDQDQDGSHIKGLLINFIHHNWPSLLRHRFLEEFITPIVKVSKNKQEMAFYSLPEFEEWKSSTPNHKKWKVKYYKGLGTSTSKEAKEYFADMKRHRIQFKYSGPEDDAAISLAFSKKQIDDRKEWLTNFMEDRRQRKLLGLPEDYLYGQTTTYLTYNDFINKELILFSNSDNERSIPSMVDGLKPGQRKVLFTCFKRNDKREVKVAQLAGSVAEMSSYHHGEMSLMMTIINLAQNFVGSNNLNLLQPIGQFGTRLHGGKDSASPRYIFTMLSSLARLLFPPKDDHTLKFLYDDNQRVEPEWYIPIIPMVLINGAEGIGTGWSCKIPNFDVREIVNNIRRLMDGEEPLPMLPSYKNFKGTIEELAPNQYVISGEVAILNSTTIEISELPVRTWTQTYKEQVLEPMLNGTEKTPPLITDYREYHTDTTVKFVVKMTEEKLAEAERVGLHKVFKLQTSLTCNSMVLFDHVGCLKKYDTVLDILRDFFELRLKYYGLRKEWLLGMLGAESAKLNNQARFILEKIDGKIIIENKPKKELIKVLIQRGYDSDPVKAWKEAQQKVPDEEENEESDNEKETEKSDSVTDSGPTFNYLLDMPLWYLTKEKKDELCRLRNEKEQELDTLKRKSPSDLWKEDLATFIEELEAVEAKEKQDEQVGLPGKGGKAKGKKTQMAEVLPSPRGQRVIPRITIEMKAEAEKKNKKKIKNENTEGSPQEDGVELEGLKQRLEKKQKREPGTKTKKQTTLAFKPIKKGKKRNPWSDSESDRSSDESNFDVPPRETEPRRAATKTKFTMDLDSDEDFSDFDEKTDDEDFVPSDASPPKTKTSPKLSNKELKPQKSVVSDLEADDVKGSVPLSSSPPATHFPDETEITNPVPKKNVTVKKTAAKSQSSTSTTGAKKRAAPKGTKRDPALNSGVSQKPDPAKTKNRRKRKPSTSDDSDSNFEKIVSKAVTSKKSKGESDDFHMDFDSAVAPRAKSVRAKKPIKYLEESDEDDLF
MT-CYB/UQCRFS1: MT-CYB/UQCRFS1 (Homo sapiens, UniProt P00156+P47985)
Sequence of UniProt P47985 (whole entry, looked up): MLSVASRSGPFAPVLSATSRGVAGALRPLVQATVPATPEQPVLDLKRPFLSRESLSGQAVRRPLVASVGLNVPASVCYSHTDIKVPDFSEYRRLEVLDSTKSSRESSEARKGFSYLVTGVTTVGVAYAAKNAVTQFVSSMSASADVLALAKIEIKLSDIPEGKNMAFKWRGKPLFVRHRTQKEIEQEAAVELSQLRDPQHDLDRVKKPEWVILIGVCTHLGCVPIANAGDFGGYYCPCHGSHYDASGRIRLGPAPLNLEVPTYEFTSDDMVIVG
Sequence of UniProt P00156 (whole entry, looked up): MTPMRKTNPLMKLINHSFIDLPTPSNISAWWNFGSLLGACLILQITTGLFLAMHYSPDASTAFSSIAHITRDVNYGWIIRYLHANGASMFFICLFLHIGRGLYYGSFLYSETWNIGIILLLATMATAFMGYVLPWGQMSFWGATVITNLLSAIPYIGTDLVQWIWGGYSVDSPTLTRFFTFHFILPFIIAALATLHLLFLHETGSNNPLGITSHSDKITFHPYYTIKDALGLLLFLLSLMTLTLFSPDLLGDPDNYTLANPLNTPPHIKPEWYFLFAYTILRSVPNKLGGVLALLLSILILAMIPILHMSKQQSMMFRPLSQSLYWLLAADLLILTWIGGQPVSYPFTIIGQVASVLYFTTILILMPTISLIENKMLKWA
T1: preQ1-III riboswitch (Faecalibacterium prausnitzii); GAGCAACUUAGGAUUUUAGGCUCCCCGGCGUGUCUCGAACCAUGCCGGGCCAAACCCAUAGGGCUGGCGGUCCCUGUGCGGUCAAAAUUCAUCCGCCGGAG
Sequence of UniProt P63092 (whole entry, looked up): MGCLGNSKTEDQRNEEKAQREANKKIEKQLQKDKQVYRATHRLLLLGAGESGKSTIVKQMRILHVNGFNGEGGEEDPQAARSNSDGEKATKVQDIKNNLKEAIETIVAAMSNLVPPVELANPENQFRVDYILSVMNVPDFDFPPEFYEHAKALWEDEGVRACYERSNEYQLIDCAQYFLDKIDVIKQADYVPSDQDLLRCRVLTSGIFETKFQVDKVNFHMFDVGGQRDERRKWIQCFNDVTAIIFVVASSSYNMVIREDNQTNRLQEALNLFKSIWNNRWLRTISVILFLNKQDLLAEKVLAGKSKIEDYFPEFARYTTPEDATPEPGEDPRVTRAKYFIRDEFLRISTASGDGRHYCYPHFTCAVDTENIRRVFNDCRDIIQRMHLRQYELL
Sequence of UniProt P51575 (whole entry, unmodified, looked up): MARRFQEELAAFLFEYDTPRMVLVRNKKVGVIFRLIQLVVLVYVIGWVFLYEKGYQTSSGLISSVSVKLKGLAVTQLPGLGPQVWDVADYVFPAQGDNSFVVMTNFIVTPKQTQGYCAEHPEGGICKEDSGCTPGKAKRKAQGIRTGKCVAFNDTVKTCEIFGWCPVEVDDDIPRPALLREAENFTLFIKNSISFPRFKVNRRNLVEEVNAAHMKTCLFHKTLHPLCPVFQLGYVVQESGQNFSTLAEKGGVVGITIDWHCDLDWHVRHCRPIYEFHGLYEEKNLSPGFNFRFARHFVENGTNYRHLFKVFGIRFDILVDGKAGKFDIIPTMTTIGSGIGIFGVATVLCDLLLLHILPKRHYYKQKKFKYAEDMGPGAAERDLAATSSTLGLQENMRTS
Sequence of UniProt P40261 (whole entry, looked up): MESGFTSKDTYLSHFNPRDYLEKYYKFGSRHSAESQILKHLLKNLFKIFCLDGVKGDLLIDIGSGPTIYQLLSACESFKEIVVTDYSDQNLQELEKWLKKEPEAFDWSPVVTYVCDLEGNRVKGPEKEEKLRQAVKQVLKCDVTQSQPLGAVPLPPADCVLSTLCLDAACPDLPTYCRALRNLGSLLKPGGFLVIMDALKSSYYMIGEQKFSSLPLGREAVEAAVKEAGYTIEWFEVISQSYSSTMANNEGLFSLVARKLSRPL
Sequence of UniProt P02754 (whole entry, looked up): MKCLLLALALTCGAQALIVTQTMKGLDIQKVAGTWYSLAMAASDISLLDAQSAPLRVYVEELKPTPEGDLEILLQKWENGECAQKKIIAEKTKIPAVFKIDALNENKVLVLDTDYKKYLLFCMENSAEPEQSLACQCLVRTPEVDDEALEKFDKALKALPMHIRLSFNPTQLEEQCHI
Sequence of UniProt Q16774 (whole entry, unmodified, looked up): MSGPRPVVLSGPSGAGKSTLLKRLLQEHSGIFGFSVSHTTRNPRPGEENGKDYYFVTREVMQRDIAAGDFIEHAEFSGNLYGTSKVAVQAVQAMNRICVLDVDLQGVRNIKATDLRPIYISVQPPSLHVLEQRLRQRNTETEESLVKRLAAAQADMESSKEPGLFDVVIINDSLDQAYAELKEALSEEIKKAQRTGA
Sequence of UniProt P43403 (whole entry, looked up): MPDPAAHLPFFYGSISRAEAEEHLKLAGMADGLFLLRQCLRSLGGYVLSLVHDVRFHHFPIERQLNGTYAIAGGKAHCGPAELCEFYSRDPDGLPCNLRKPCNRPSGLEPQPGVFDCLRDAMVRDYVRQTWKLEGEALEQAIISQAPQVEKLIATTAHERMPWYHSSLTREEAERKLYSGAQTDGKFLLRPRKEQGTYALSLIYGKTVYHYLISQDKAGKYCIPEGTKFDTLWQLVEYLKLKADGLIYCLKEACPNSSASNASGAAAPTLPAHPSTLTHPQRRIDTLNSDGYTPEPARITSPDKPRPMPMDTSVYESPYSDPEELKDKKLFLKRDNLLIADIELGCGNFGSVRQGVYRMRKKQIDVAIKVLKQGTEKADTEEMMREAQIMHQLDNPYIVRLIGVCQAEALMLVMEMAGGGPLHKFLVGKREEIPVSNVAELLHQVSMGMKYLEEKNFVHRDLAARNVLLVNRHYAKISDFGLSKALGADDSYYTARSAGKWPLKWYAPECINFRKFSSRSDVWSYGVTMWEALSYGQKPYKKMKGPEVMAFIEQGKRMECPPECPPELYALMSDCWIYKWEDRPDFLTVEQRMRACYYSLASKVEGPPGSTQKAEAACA
Sequence of UniProt P31641 (whole entry, unmodified, looked up): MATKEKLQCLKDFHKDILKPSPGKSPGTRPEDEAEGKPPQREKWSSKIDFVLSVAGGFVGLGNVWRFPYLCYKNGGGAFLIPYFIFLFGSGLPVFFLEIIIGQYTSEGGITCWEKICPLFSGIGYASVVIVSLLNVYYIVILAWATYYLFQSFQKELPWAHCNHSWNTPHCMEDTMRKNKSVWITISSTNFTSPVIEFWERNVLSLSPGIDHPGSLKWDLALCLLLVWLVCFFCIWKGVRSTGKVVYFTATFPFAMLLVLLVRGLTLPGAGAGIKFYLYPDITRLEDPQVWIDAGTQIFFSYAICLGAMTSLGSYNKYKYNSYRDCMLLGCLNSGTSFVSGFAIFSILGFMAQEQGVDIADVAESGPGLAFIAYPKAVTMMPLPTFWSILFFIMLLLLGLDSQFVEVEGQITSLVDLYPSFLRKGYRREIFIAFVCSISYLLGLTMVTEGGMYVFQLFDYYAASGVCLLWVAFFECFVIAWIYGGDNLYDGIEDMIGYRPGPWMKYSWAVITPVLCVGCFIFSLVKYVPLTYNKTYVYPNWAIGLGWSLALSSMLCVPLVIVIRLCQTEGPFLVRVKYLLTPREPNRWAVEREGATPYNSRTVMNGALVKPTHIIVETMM
Sequence of UniProt O43914 (whole entry, looked up): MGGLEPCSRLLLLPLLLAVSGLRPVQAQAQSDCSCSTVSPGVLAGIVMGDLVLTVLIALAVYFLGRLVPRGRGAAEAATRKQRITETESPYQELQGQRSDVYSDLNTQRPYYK

C=CC(=O)N1CCC(COCC(=O)N2CCN(c3nc(-c4cnc(N)nc4C(F)F)nc(N4CCOC[C@@H]4C)n3)CC2)CC1  remaining binding (ZAP70 (Homo sapiens, UniProt P43403); KINOMEscan; 1 µM): 98%
Nc1ncnc2c1ncn2[C@@H]1O[C@H](COP(=O)(O)OP(=O)(O)O)[C@@H](O)[C@H]1O  ΔH (GUK1 (Homo sapiens, UniProt Q16774, R137A); binding, ITC): -7.3 ± 1.1 kcal/mol
COc1c(C(=O)O)csc1Br  Hill slope (Protein lin-28 homolog A (Mus musculus, UniProt Q8K3Y3)): -1.4
CCCCCCCC/C=C\CCCCCCCC(=O)NCCc1ccc(O)c(O)c1  Hill coefficient (Trpv1 (Mus musculus, UniProt Q704Y3, R580K); ion current, agonist, whole-cell patch clamp; R580K): 2.17 ± 0.58
CCCC(C)N1CCC(N(Cc2ccccc2NC(=O)CCl)C(=O)Nc2cccc(C(F)(F)F)c2)CC1 (stereo not shown)  covalent adduct formation (DCN1-like protein 1 (Homo sapiens, UniProt Q96GG9); covalent binder, LC-TOF mass spectrometry; 60 µM, overnight, 4 °C, together with: DCN1-like protein 1 30 µM): 10%
CCCCOc1cc(C(=O)NCCN(CC)CC)c2ccccc2n1  inactivation V1/2 shift (PKD2L1 (Homo sapiens, UniProt Q9P0L9); ion current, whole-cell patch clamp; concentration not given, 2 s prepulse; relative to: untreated): -69 mV
CC(=O)c1n[nH]c2ccc(-c3cnc4ccc(N(C)C5CCOCC5)nn34)cc12  TREM1/DAP12 reporter signal (TYRO protein tyrosine kinase-binding protein, with TREM1 (TYROBP, Homo sapiens, UniProt O43914); inhibitor; split luciferase reporter cells; 1 µM, after wash; relative to: without wash): no effect
CCNc1ccc(C(N)=O)cn1  activity class (NNMT (Homo sapiens, UniProt P40261); concentration not given): inactive
CCCCC[C@H](O)/C=C/[C@@H]1[C@H]2C/C(=C/CCCC(=O)O)O[C@H]2C[C@H]1O  GTP hydrolysis (GNAS, with Gbeta and Ggamma (Homo sapiens, UniProt P63092); modulator; 100 µM, without A2AR; relative to: Gs alone): 88.8% and 89.7% and 89.1% and 89.3%
CC(C)C(=O)Nc1n[nH]c2cc(-c3cccc(NS(=O)(=O)C4CC4)c3)ccc12  ADP produced (PIP5K1C (Homo sapiens, UniProt O60331); ADP-Glo; 4.57 nM, together with: 10 µM ATP): 2.85 µM
COc1ccc(F)cc1C(=O)NCc1ccc(-c2nn([C@@H](C)C(F)(F)F)c(N)c2C(N)=O)cc1  inhibition (OXSR1 (Homo sapiens, UniProt O95747); target engagement, competitive chemoproteomics; human PBMCs; 0.1 µM): 9.4%
CCN1CCC[C@H]1CNC(=O)c1c(O)c(Cl)cc(Cl)c1OC  log2 fold change (Mas-related G-protein coupled receptor MRG (MAS1L, Homo sapiens, UniProt P35410); β-arrestin recruitment, TANGO luminescence, measured: MAS1L; concentration not given; relative to: basal luminescence): 0.312
NCc1c[nH]c2nc(N)[nH]c(=O)c12  Kd (T1, preQ1-III riboswitch (Faecalibacterium prausnitzii); ITC; NaCl 100 mM, apparent, single-site fit): 17.4 nM
NCCCCC(=O)O  fraction bound (SLC6A6 (Homo sapiens, UniProt P31641, Y138A); binding, microscale thermophoresis; 30.5 nM, fitted curve; higher = more binding): 0
Cc1nc(CSc2nc(SCc3ccc(C(C)C)cc3)nc(=O)[nH]2)cs1  mean linear DNA (TOP2A; DNA cleavage; 7.8 µM): 0%
FC(F)(F)CN1CC(n2cc(Oc3ccn4nc(Cl)cc4n3)cn2)C1  ΔTm (Very long chain fatty acid elongase 1 (Homo sapiens, UniProt Q9BW60); CETSA; Jurkat; 1 h): 12.3 °C
O=S(=O)(Nc1nccs1)c1ccc(N=NN(O)c2ccccc2)cc1  inhibition (α-glucosidase, rat intestine; enzyme activity; 20 µg/mL, together with: 4-nitrophenyl α-D-glucopyranoside): 2.5 ± 1.43%
Nc1ncnc2c1ncn2[C@@H]1O[C@H](COP(=O)(O)CP(=O)(O)OP(=O)(O)O)[C@@H](O)[C@H]1O  specific binding (P2X purinoceptor 1 (P2RX1, Homo sapiens, UniProt P51575, K136W); saturation binding; HEK293; 13 nM): 801 CCPM and 872 CCPM
NC(=O)NOCCCCCCCCCCCC[P+](c1ccccc1)(c1ccccc1)c1ccccc1.O=C([O-])C(F)(F)F  oxygen consumption rate (MT-CYB/UQCRFS1; complex III-dependent respiration, Seahorse XF96; HCT-116; 10 µM, 24 h; relative to: control): 23.6 ± 2.42%
CC[C@H](C)[C@@H]1NC(=O)[C@H](C)NC(=O)[C@H]([C@@H](C)CC)NC(=O)[C@H](CCC(N)=O)NC(=O)[C@H](C)NC(=O)[C@H](CCCNC(=N)N)NC(=O)[C@H](C(C)C)NC(=O)[C@H](CC(C)C)NC(=O)[C@H](CCC(=O)O)NC(=O)[C@H](CCCNC(=N)N)NC(=O)CNC(=O)[C@@H](NC(=O)[C@H](CC(C)C)NC(=O)[C@H](CCCCN)NC(=O)[C@@H](NC(=O)[C@@H](NC(=O)[C@H](CCC(=O)O)NC(=O)[C@H](CCC(=O)O)NC(=O)[C@H](CCSC)NC(=O)[C@H](Cc2c[nH]c3ccccc23)NC(=O)[C@H](CO)NC(=O)[C@@H](N)CC(=O)O)C(C)C)[C@@H](C)CC)CSSC[C@@H]2NC(=O)[C@@H](NC(=O)[C@H](CCCCN)NC(=O)[C@H](CC(N)=O)NC(=O)[C@H](C)NC(=O)[C@H](CC(C)C)NC(=O)[C@H](C)NC(=O)[C@H](CO)NC(=O)[C@H](Cc3ccc(O)cc3)NC(=O)[C@H](CC(C)C)NC(=O)[C@H](CCC(N)=O)NC(=O)c3ccc(-c4c5ccc(=[N+](C)C)cc-5oc5cc(N(C)C)ccc45)c(C(=O)[O-])c3)CSSC[C@H](NC(=O)CNC(=O)[C@H](C(C)C)NC(=O)[C@H](Cc3c[nH]cn3)NC2=O)C(=O)N[C@@H]([C@@H](C)O)C(=O)N[C@@H](CCCCN)C(=O)N[C@@H](CCCNC(=N)N)C(=O)N[C@@H](CO)C(=O)N[C@@H](CC(C)C)C(=O)N[C@@H](C)C(=O)N[C@@H](CCCNC(=N)N)C(=O)N[C@@H](Cc2ccccc2)C(=O)N[C@H](C(=O)O)CSSC[C@@H](C(=O)NCC(=O)N[C@@H](CCSC)C(=O)N[C@@H](CO)C(=O)N[C@H](C(=O)N[C@@H](Cc2c[nH]c3ccccc23)C(=O)N[C@@H](CO)C(=O)O)[C@@H](C)O)NC1=O  fast dissociation fraction (Relaxin receptor 1 (RXFP1, Homo sapiens, UniProt Q9HBX9, F76A/Y80A); binding, NanoBRET; concentration not given, together with: relaxin 10 µM): 60.3%
Cc1cc(NS(=O)(=O)c2ccc(N=NN(C)O)cc2)no1  inhibition (α-glucosidase, rat intestine; enzyme activity; 120 µg/mL, together with: 4-nitrophenyl α-D-glucopyranoside): 37.5 ± 1.38%
CC(=O)N[C@@H](CO)C(=O)N[C@@H](CC(C)C)C(=O)N[C@@H](CCC(=O)O)C(=O)N[C@@H](CCC(=O)O)C(=O)N1CCC[C@H]1C(=O)N[C@@H](Cc1c[nH]cn1)C(=O)N[C@@H](CO)C(=O)N1CCC[C@H]1C(=O)N[C@@H](CCC(=O)O)C(=O)N[C@H](C(=O)NCC(=O)N[C@@H](CCC(=O)O)C(=O)N[C@@H](CCCCN)C(=O)N[C@H](C(=O)N[C@H](C(=O)N[C@@H](C)C(=O)NCC(=O)N[C@@H](CCC(=O)O)C(=O)N[C@H](C(=O)N[C@@H](CC(N)=O)C(N)=O)C(C)C)C(C)C)C(C)C)[C@@H](C)O  binding stoichiometry (Kelch-like ECH-associated protein 1, Kelch domain (KEAP1, Homo sapiens, UniProt Q14145); ITC; concentration not given): 1.04
Cc1noc(NS(=O)(=O)c2ccc(N=NN(C)O)cc2)c1C  inhibition (α-glucosidase, rat intestine; enzyme activity; 120 µg/mL, together with: 4-nitrophenyl α-D-glucopyranoside): 22.5 ± 0.04%
CC(C)CC(=O)N[C@H](C(=O)N[C@H](C(=O)N[C@@H](CC(C)C)[C@@H](O)CC(=O)N[C@@H](C)C(=O)N[C@@H](CC(C)C)[C@@H](O)CC(=O)NCCOCCOCCC(=O)NCCCC[C@H](NC(=O)CN1CCN(CC(=O)O)CCN(CC(=O)O)CC1)C(=O)O)C(C)C)C(C)C  dissociation rate constant (Cathepsin D (CTSD, Homo sapiens, UniProt P07339); surface plasmon resonance): 0.00762 s⁻¹
CC1=C(/C=C/C(C)=C/C=C/C(C)=C/C=C/C=C(C)/C=C/C=C(C)/C=C/C2=C(C)CCCC2(C)C)C(C)(C)CCC1  number of binding sites (Beta-lactoglobulin (LGB, Bos taurus, UniProt P02754); fluorescence quenching; concentration not given, 303 K): 1.41
NC(=O)NOCCCCCCCCCC[P+](c1ccccc1)(c1ccccc1)c1ccccc1.O=C([O-])C(F)(F)F  oxygen consumption rate (MT-CYB/UQCRFS1; complex III-dependent respiration, Seahorse XF96; HCT-116; 0.1 µM, 24 h; relative to: control): 101 ± 3.3%
O=c1nc(SCc2cc(F)cc(C(F)(F)F)c2)nc(SCc2ccc3nc(Cl)ccc3c2)[nH]1  ATP hydrolysis rate (TOP2A; ATPase activity; 15.6 µM, together with: ATP 2 mM): 2.31 µM/min and 1.67 µM/min
O=C1Nc2ccc(Br)cc2C1=O  share of total products (Dehaloperoxidase B, ferric (Amphitrite ornata, UniProt Q9NAV7); product, HPLC; together with: 5-bromoindole 500 µM, H2O2 500 µM): 2.8%
NC(=O)NOCCCCCCCCCCCCCC[P+](c1ccccc1)(c1ccccc1)c1ccccc1.O=C([O-])C(F)(F)F  oxygen consumption rate (MT-CYB/UQCRFS1; complex III-dependent respiration, Seahorse XF96; HCT-116; 0.75 µM, 24 h; relative to: control): 72.8 ± 3.66%
COc1cc(-c2cc(C(C)=O)n3ccccc23)cc(OC)c1Cn1ccnc1  ΔTm (Peregrin (BRPF1, Homo sapiens, UniProt P55201)): -3 °C
Nc1ncnc2c1ncn2[C@@H]1O[C@H](COP(=O)(O)OP(=O)(O)OP(=O)(O)O)[C@@H](O)[C@H]1O  Kia (hexokinase, yeast; substrate; pH 8.0, 25 °C, MgCl2 1.5 mM, together with: glucose varied): 241 µM

Some of these lines once more:
Nc1ncnc2c1ncn2[C@@H]1O[C@H](COP(=O)(O)CP(=O)(O)OP(=O)(O)O)[C@@H](O)[C@H]1O  specific binding (P2X purinoceptor 1 (P2RX1, Homo sapiens, UniProt P51575, K136W); saturation binding; HEK293; 13 nM): 801 CCPM and 872 CCPM
CC(=O)N[C@@H](CO)C(=O)N[C@@H](CC(C)C)C(=O)N[C@@H](CCC(=O)O)C(=O)N[C@@H](CCC(=O)O)C(=O)N1CCC[C@H]1C(=O)N[C@@H](Cc1c[nH]cn1)C(=O)N[C@@H](CO)C(=O)N1CCC[C@H]1C(=O)N[C@@H](CCC(=O)O)C(=O)N[C@H](C(=O)NCC(=O)N[C@@H](CCC(=O)O)C(=O)N[C@@H](CCCCN)C(=O)N[C@H](C(=O)N[C@H](C(=O)N[C@@H](C)C(=O)NCC(=O)N[C@@H](CCC(=O)O)C(=O)N[C@H](C(=O)N[C@@H](CC(N)=O)C(N)=O)C(C)C)C(C)C)C(C)C)[C@@H](C)O  binding stoichiometry (Kelch-like ECH-associated protein 1, Kelch domain (KEAP1, Homo sapiens, UniProt Q14145); ITC; concentration not given): 1.04
Cc1nc(CSc2nc(SCc3ccc(C(C)C)cc3)nc(=O)[nH]2)cs1  mean linear DNA (TOP2A; DNA cleavage; 7.8 µM): 0%
CCCCC[C@H](O)/C=C/[C@@H]1[C@H]2C/C(=C/CCCC(=O)O)O[C@H]2C[C@H]1O  GTP hydrolysis (GNAS, with Gbeta and Ggamma (Homo sapiens, UniProt P63092); modulator; 100 µM, without A2AR; relative to: Gs alone): 88.8% and 89.7% and 89.1% and 89.3%
COc1ccc(F)cc1C(=O)NCc1ccc(-c2nn([C@@H](C)C(F)(F)F)c(N)c2C(N)=O)cc1  inhibition (OXSR1 (Homo sapiens, UniProt O95747); target engagement, competitive chemoproteomics; human PBMCs; 0.1 µM): 9.4%
